Assay results pooled from the literature.
Numbered parts are unrelated; each lists some results of a single study. Several values in a cell are separate wells, animals, samples, runs or records.
UniProt O94804, sequence (whole entry, looked up): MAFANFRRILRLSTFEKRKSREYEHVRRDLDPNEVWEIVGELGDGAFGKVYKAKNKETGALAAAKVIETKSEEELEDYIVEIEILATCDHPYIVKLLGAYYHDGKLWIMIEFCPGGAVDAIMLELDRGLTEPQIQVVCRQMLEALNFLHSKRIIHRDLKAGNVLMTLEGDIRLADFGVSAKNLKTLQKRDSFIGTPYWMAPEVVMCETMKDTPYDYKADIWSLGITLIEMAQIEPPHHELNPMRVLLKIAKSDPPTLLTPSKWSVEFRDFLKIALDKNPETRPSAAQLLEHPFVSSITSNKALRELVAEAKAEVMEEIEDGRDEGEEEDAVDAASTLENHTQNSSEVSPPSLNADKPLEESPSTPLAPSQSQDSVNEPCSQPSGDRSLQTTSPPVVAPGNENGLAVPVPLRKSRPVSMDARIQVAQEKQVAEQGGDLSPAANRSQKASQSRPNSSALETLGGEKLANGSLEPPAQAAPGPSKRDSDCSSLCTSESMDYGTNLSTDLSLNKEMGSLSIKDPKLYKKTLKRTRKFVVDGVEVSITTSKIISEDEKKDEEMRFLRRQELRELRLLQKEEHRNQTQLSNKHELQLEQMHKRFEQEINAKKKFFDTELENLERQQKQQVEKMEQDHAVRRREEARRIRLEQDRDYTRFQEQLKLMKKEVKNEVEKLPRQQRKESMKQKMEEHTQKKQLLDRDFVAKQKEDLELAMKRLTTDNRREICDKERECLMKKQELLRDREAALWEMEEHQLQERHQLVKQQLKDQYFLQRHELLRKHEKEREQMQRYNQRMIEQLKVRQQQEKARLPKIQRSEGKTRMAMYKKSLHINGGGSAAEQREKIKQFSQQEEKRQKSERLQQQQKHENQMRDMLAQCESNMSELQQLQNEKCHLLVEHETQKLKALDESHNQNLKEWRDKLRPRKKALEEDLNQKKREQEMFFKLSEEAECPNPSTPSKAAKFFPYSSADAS
UniProt Q00537, sequence (whole entry, looked up): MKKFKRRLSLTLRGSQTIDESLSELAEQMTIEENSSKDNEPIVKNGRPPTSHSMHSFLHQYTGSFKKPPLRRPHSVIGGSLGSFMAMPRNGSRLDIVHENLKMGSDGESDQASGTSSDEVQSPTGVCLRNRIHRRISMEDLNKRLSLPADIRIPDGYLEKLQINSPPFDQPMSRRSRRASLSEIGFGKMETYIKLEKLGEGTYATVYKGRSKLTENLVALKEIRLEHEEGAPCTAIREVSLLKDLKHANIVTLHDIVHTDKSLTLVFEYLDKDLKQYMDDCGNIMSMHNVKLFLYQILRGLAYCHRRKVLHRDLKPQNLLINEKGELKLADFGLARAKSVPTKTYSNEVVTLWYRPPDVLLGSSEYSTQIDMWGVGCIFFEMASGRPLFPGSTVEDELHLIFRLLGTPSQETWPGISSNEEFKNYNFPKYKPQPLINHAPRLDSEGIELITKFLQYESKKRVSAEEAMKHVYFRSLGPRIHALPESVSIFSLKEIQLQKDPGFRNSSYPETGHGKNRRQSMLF
UniProt P53671, sequence (whole entry, looked up): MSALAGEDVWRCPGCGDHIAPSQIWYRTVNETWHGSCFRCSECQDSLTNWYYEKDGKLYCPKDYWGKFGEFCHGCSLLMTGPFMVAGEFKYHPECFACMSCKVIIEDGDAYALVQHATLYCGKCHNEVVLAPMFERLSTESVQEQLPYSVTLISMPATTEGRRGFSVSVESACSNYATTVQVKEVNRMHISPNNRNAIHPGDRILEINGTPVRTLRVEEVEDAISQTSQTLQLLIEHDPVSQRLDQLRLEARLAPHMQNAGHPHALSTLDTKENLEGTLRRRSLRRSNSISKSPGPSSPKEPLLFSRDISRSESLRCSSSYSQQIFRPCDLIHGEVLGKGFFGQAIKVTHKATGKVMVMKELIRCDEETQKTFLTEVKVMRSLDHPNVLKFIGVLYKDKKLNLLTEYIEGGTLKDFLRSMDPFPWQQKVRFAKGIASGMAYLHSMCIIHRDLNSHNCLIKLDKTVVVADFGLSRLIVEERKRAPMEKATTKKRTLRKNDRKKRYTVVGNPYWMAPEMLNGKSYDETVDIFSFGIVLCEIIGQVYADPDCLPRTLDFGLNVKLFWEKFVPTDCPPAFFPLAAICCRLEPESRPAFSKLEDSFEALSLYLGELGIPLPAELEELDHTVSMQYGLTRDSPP
UniProt Q9NSY1, sequence (whole entry, looked up): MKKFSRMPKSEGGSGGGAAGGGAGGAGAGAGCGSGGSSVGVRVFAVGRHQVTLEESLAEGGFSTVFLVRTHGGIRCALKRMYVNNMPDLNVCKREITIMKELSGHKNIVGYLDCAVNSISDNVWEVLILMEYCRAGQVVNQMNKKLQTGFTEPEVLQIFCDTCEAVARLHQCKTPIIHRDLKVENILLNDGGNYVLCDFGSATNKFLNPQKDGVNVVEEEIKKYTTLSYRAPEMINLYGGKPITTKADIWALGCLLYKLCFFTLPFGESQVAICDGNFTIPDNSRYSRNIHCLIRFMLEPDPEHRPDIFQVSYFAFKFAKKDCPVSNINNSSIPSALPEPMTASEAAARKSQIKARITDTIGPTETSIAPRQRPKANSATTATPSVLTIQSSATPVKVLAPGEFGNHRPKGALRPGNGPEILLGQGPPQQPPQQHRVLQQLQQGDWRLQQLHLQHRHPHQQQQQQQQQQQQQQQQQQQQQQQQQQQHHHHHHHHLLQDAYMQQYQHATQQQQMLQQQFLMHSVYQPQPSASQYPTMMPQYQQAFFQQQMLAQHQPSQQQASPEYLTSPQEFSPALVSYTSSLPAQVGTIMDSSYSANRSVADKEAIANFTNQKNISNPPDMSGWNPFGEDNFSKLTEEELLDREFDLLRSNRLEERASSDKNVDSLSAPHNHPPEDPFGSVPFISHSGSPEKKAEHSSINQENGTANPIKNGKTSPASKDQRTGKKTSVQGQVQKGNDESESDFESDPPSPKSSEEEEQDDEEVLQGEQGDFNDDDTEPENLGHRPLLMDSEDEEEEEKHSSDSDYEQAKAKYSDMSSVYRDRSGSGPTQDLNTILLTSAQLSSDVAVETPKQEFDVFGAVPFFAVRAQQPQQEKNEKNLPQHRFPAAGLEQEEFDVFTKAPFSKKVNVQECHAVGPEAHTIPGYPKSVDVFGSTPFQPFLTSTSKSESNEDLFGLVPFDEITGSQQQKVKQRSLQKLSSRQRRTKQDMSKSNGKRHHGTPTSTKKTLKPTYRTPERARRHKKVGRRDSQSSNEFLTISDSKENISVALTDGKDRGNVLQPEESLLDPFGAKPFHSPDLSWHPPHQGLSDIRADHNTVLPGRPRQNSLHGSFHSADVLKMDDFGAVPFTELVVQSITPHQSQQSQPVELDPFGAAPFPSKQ
UniProt P49841, sequence (whole entry, looked up): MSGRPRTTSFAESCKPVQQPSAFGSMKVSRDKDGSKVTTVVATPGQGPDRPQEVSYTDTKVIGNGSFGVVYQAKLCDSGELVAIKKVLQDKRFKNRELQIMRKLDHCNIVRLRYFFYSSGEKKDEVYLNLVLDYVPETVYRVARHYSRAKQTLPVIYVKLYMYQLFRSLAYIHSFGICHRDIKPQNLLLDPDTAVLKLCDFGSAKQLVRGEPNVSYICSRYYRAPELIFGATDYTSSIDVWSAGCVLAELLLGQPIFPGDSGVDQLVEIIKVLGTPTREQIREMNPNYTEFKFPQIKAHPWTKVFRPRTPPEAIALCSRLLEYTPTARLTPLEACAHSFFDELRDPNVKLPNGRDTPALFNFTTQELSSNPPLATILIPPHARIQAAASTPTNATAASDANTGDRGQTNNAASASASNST

Block 1 — observed: enzyme activity; mode: inhibitor; concentration: 10 µM
Target: Calcium/calmodulin-dependent protein kinase type II subunit alpha (CAMK2A, Homo sapiens, UniProt Q9UQM7)
UniProt Q9UQM7, sequence (whole entry, looked up): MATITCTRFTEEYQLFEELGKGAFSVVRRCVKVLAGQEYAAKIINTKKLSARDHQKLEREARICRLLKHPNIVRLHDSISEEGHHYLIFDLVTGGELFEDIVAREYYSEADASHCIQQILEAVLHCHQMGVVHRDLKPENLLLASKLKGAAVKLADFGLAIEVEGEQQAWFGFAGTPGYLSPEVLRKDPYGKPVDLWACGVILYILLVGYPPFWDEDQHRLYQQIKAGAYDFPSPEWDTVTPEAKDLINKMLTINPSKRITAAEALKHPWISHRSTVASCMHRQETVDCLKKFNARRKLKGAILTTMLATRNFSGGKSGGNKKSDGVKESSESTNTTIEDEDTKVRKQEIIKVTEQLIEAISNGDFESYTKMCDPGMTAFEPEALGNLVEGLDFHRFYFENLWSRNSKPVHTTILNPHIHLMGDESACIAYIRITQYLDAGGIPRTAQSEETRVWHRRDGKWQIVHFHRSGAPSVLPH
Compound	inhibition [%]
CC(=O)CC(=O)CCC(=O)O	-10
CC(C)OC(=O)CNc1cccc(CN(Cc2ccc(-n3cccn3)cc2)S(=O)(=O)c2cccnc2)n1	-6
Cc1cn([C@@H]2O[C@H](CO)[C@@H](O)[C@H]2O)c(=O)[nH]c1=O	6
C[C@H](O)[C@H](O)[C@@H](O)[C@@H](O)C=O	-26
COc1cccc(O)c1C(=O)O	50
C[C@H](CSC(=O)c1ccccc1)C(=O)N1C[C@@H](Sc2ccccc2)C[C@H]1C(=O)O	-5
O=C(O)C[C@@H]1CC[C@H](NC(=O)Cc2cccs2)B(O)O1	3
CC(=O)O[C@]1(C)CC[C@@]23C[C@@H]1C(C)(C)[C@@H]2CC[C@H]3C	21
Cc1cc(-c2ccccc2)nnc1NCCN1CCOCC1	8
CC1=CC[C@H]2C[C@@H]1C2(C)C	-4
C[C@@H]1O[C@@H](O[C@H]2[C@H](OC(=O)[C@]34CCC(C)(C)C[C@H]3C3=CC[C@@H]5[C@@]6(C)C[C@H](O)[C@H](O[C@@H]7O[C@H](CO)[C@@H](O)[C@H](O)[C@H]7O)C(CO)(CO)[C@@H]6CC[C@@]5(C)[C@]3(C)C[C@H]4O)OC[C@H](O)[C@@H]2O)[C@H](O)[C@H](O)[C@H]1O[C@@H]1OC[C@@H](O)[C@H](O[C@@H]2OC[C@](O)(CO)[C@H]2O)[C@H]1O	-23
COc1ccc(-c2cc(=O)c3c(O)cc(O[C@@H]4O[C@H](CO)[C@@H](O)[C@H](O)[C@H]4O)cc3o2)cc1O	33
Cc1ccc2nc(C)ccc2c1	20

Block 2 — cell line: mouse MPNST tumor cells; method: high-content immunofluorescence imaging; measured: nuclear SOX9; concentration: 10 µM; time: 12 h; notes: mean of 2 replicates; relative to: DMSO control; direction: higher = more nuclear SOX9
SMILES	nuclear SOX9 intensity
Cn1c(=O)c2c(ncn2CC(O)CO)n(C)c1=O (stereo not drawn)	101 % of DMSO
Cc1onc(-c2c(F)cccc2Cl)c1C(=O)N[C@@H]1C(=O)N2[C@@H]1SC(C)(C)[C@@H]2C(=O)O	93.5 % of DMSO
Cc1ncc([N+](=O)[O-])n1CCO	91.7 % of DMSO and 108 % of DMSO
C[C@]12CC[C@@H]3c4ccc(O)cc4C[C@@H](CCCCCCCCC[S+]([O-])CCCC(F)(F)C(F)(F)F)[C@H]3[C@@H]1CC[C@@H]2O (stereo partly drawn)	133 % of DMSO
O=c1[nH]c(=O)n([C@H]2C[C@H](O)[C@@H](CO)O2)cc1C(F)(F)F	135 % of DMSO and 144 % of DMSO
COc1cccc(/C=N/N(C(=O)C(F)(F)F)c2ccc(C)cc2C)c1	107 % of DMSO
C=CCn1c(=O)n([C@@H]2O[C@H](CO)[C@@H](O)[C@H]2O)c2nc(N)[nH]c(=O)c21	99.5 % of DMSO
CCOC(=O)n1ccn(C)c1=S	87.7 % of DMSO
CCn1cc(C(=O)O)c(=O)c2cnc(N3CCNCC3)nc21	94.5 % of DMSO
C[C@H]1CC(=O)Nc2cc(C(=O)NCCC3CC3)ccc2N1C(=O)N1CC2CC2C1 (stereo partly drawn)	85.4 % of DMSO
C#CCNc1nccc(-c2ccc(-n3ccnc3)cc2)n1	94.8 % of DMSO
O=C(O)c1cccnc1	96.5 % of DMSO
COc1cc2nc(N(C)CCCNC(=O)C3CCCO3)nc(N)c2cc1OC (stereo not drawn)	94.5 % of DMSO

Block 3 — observed: enzyme activity; mode: inhibitor; concentration: 0.5 µM; relative to: control
Target: Serine/threonine-protein kinase D3 (PRKD3, Homo sapiens, UniProt O94806)
UniProt O94806, sequence (whole entry, looked up): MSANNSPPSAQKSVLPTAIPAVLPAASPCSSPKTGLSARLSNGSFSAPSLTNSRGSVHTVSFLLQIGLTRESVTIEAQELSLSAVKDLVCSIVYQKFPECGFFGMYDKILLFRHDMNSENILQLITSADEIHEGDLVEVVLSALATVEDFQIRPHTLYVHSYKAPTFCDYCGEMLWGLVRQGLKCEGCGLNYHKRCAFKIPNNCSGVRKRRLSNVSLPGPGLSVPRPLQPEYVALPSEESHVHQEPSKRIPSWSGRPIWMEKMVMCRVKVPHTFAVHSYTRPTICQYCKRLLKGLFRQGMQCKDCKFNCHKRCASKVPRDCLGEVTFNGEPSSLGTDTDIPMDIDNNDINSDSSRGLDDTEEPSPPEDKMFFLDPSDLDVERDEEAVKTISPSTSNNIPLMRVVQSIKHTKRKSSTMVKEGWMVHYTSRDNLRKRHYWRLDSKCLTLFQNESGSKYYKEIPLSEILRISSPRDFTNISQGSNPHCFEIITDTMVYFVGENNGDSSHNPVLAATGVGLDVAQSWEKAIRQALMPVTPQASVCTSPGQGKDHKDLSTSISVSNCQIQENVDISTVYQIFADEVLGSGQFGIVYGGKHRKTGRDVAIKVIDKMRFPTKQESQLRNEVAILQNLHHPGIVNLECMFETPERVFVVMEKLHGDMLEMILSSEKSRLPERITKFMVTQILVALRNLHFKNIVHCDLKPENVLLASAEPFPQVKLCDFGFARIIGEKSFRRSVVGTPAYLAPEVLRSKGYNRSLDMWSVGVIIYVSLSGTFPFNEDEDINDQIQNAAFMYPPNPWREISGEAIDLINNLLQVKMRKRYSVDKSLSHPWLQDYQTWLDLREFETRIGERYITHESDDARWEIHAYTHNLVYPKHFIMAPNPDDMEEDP
Compound	remaining activity
C[C@@H](N)[C@H]1CC[C@H](C(=O)Nc2ccncc2)CC1	87.3%
c1cc(-c2cnn3cc(-c4ccc(OCCN5CCCCC5)cc4)cnc23)ccn1	73.2%
FC(F)(F)c1ccc(/C=C/c2nc(COc3ccc(CCCCn4ccnn4)cc3)co2)cc1	93.3%
NC(=O)c1ccc(-c2nc(-c3ccc4c(c3)OCCO4)c(-c3ccccn3)[nH]2)cc1	85.1%
Clc1ccc(Nc2nnc(Cc3ccncc3)c3ccccc23)cc1	94.7%
CNc1cc2c(Nc3cccc(Br)c3)ncnc2cn1	78.5%
O=C(O)/C=C/c1cc(Br)c(Br)c(Br)c1Br	87.9%
O=c1c(-c2ccc(F)cc2)c(-c2ccncc2)[nH]n1-c1ccc(Cl)cc1	74.5%
N#CC(c1ccnc(NCCc2cccnc2)n1)c1nc2ccccc2s1 (stereo not drawn)	64.7%
COc1cc2c(N3CCN(C(=O)Nc4ccc(OC(C)C)cc4)CC3)ncnc2cc1OCCCN1CCCCC1	97.3%
CCN(CC)CCCCN1c2ccccc2Oc2ccc(Cl)cc21	97.1%

Block 4 — observed: cell-free assay; method: competition with immobilised ligand; concentration: 1 µM
Structure (SMILES): CC(=O)Nc1c(C(C)=O)c(=O)n(C)c2nc(-c3ccc(Cl)cc3Cl)c(-c3ccc(Cl)cc3)cc12
target	remaining binding
SRSF protein kinase 1 (SRPK1, Homo sapiens, UniProt Q96SB4)	100%
Inhibitor of nuclear factor kappa-B kinase subunit alpha (CHUK, Homo sapiens, UniProt O15111)	100%
Serine/threonine-protein kinase/endoribonuclease IRE1 (ERN1, Homo sapiens, UniProt O75460)	100%
Serine/threonine-protein kinase D3 (PRKD3, Homo sapiens, UniProt O94806)	100%
Serine/threonine-protein kinase 10 (STK10, Homo sapiens, UniProt O94804)	100%
Phosphatidylinositol 4,5-bisphosphate 3-kinase catalytic subunit alpha isoform (PIK3CA, Homo sapiens, UniProt P42336, E542K)	94%
BMP-2-inducible protein kinase (BMP2K, Homo sapiens, UniProt Q9NSY1)	100%
Ribosomal protein S6 kinase alpha-6, C-terminal kinase domain (RPS6KA6, Homo sapiens, UniProt Q9UK32)	100%
Glycogen synthase kinase-3 beta (GSK3B, Homo sapiens, UniProt P49841)	100%
Myotonin-protein kinase (DMPK, Homo sapiens, UniProt Q09013)	100%
LIM domain kinase 2 (LIMK2, Homo sapiens, UniProt P53671)	100%
Dual specificity protein kinase TTK (TTK, Homo sapiens, UniProt P33981)	100%
Activin receptor type-1B (ACVR1B, Homo sapiens, UniProt P36896)	94%
Myosin light chain kinase 2, skeletal/cardiac muscle (MYLK2, Homo sapiens, UniProt Q9H1R3)	100%
Cyclin-dependent kinase 17 (CDK17, Homo sapiens, UniProt Q00537)	100%
Mitogen-activated protein kinase 11 (MAPK11, Homo sapiens, UniProt Q15759)	93%
Proto-oncogene tyrosine-protein kinase Src (SRC, Homo sapiens, UniProt P12931)	100%

For quick reference, copied from above (block 1):
Compound	inhibition [%]
COc1cccc(O)c1C(=O)O	50
O=C(O)C[C@@H]1CC[C@H](NC(=O)Cc2cccs2)B(O)O1	3
C[C@@H]1O[C@@H](O[C@H]2[C@H](OC(=O)[C@]34CCC(C)(C)C[C@H]3C3=CC[C@@H]5[C@@]6(C)C[C@H](O)[C@H](O[C@@H]7O[C@H](CO)[C@@H](O)[C@H](O)[C@H]7O)C(CO)(CO)[C@@H]6CC[C@@]5(C)[C@]3(C)C[C@H]4O)OC[C@H](O)[C@@H]2O)[C@H](O)[C@H](O)[C@H]1O[C@@H]1OC[C@@H](O)[C@H](O[C@@H]2OC[C@](O)(CO)[C@H]2O)[C@H]1O	-23
